Measured values from different studies.
Parts stem from different laboratories: compare values within a part only.

Set 1
Target: Histone acetyltransferase KAT6A, both winged helices, GST fusion (KAT6A, Homo sapiens, UniProt Q92794, residues 1-181)
Technique: protein binding microarray
Form: double-stranded DNA, one strand shown
Matrix: in vitro
Tested at: not given
Notes: 8-mer, flanks averaged, mean of 2 arrays, mostly near background
Baseline: not given
Reading: higher = stronger binding
Endpoint: E-score
Residues (chain): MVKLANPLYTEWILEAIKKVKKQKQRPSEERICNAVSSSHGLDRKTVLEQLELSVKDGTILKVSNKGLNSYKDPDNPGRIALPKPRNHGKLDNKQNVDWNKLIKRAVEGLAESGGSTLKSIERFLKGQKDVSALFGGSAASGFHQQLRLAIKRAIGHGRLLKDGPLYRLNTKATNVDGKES
CAGATGAG: -0.274
CCCTCTGA: -0.135
TGCGCACA: 0.248
AACGGCAG: 0.228
ATGCCAGC: -0.0572
ACTTGCAG: -0.17
AAGCTTAA: -0.0224
ATAGTTAC: -0.053
AGTATCCC: -0.0765
GTCGTCTA: 0.13
ATGGGGGA: -0.241
AACAGTAC: -0.0434
ACCCTGAG: -0.0287
CGGGTGGA: 0.144
ATACCTAT: -0.184
AGCTTGGA: -0.207
ATGGTCCG: 0.184
CCAGCCGG: -0.0106
ACCTCATG: -0.178
CTCTAACA: -0.0693
GGTTAAGA: 0.0466

Set 2
Target: RNA binding protein fox-1 homolog 2, RRM domain, GST-SBP tag (RBFOX2, Homo sapiens, UniProt O43251-10, residues 100-194)
Technique: RNA Bind-n-Seq
Form: RNA
Matrix: in vitro
Tested at: 365 nM
Notes: natural RNA segment, single round, ends assumed
Baseline: no-protein control
Reading: higher = stronger binding
Endpoint: RBNS enrichment (R)
Shared flanks, not repeated: GGGAGUUCUACAGUCCGACGAUC … UGGAAUUCUCGGGUGCCAA
GUAGAACUACUUUGGAAUUUAUCUCCAUUUUCCACAAAAAGAAGCUUCUUUGAUGAAGGAGGAGAGAUGAAGAGUUGCUUGUUUUGCAGAAUUCUAUAGCAUGAAGGUUA: 1.37
GCAACCCUCGGCUCUUGCCAAGGCACCACAGAAUGCACUUGCUCAUGCCCUGUGCCUCUUGAGCAGAAAAGAGCACUGACAACUGGGACACCUGGCUCUGUCUUCCUACA: 0.535
ACCUGAGGUGCAUAGCAUAUUCCCACAUUCCAUUUGGUAGCAAUAUGCGGUCUGAAUGCAUGCAUUCAUGAGUCCAUGUGGCCAAGUCAGCCUGUGUGCUACUGAACUGU: 1.37
AGAGCGGGUCGGUGGGAAACAGGGUGAACUUUAGCUUCCAUCAACAGCUCUGGUAGCAAAACCAGUCCCCUACCCCCUAGAGAAUGCAUCCGUUUCCCCACCUGAUAUGG: 0.41
UGAAAAAUUAUCAGUUAUAUUUUGCUGUUUAUGAUCUAUUUGUAGAUUAGGAUUAAAAUGGAUUUAAUCCAUUUUUAAGGCUGUGUGAAUUUUUCUAAACAAGAACCAUU: 0.387
UCUUGUGUGUGCGUUAGACUUGAUGAGAAGGUGUGAACUCUGCAGAAAGUCUCUUCUUCAUCACUGAAUUCAGUCACUUGGAGAUGACAACUUCAAAUGCUAACCCGAUG: 0.641
UCACUGGAACCUCCCUGGGCCUGUCUCAGAUUGGGAUUAACAUAAAAGAGUGGAACUAUCCAAAAGAGACAGGGAGAAAUAAAUAAAUUGCCUCCCUUCCUCCGCUCCCC: 0.435
AGGUUUUCUGGUUUUAUGACUUUUUGUCUUAUUUUAUUUUUCCUACAUUUCUUUUUUUUUUUUUUUCCUUUAGAAUGCCCUGGAAAUAUAUUUAAGUGGUAAUGAAAAAU: 8.07

Set 3
Target: Sal-like protein 4, full length isoform B (SALL4, Homo sapiens, UniProt Q9UJQ4-2, residues 1-616)
Technique: universal PBM
Form: double-stranded DNA, one strand shown
Matrix: in vitro
Tested at: not given
Notes: 8-mer, flanks averaged, mean of replicates
Reading: higher = stronger binding
Endpoint: E-score
ACTGATCG: -0.158
AAATTCGT: 0.244
GAACTATA: 0.256
GCCCACAA: -0.167
ACAAACGC: -0.0557
CACATATG: 0.126
GAGTTACA: 0.0636
GGACAGCA: -0.094
AGGGGTGG: -0.274
ACTACGGG: -0.194
GGAGTGAC: -0.00775
CTAATCTA: 0.193
GCCTTGCC: -0.202
GAGCTAAA: -0.03
ATCGTTTG: 0.17
GGCAGACA: -0.142
CTCGGCAA: -0.108
CGACTGAC: -0.116
ACCTCGCG: -0.22

Set 4
Target: Prothrombin, mature alpha-thrombin (F2, Homo sapiens, UniProt P00734)
Technique: aptamer microarray, sandwich
Form: DNA with 2'F-ANA
Matrix: in vitro
Tested at: 200 nM
Notes: whole 15-mer aptamer, many near background
Together with: Cy3 exosite-II aptamer, 400 nM
Reading: higher = stronger binding
Endpoint: mean fluorescence intensity
Strand: GGTTGGTGTGGTTGG
2'F-ANA at 2 3 4 5 6 8 11 13 14: 50.7 a.u.
2'F-ANA at 1 2 3 6 9 11 14: 60.8 a.u.
2'F-ANA at 2 4 5 10 12 13 14 15: 47.8 a.u.
2'F-ANA at 1 2 5 8 9 13 14 15: 48.7 a.u.
2'F-ANA at 2 3 9 10 12 14: 321 a.u.
2'F-ANA at 1 2 3 5 6 9 11 12 13: 77.5 a.u.
2'F-ANA at 2 3 6 7 10 11 12 13 14: 242 a.u.
2'F-ANA at 1 2 3 6 8 12 14: 90.9 a.u.
2'F-ANA at 2 3 4 5 6 9 10 11 13 14 15: 66.1 a.u.
2'F-ANA at 1 4 6 7 10 12 13 14 15: 48.8 a.u.
2'F-ANA at 1 2 5 6 8 10 11 12: 61.2 a.u.
2'F-ANA at 3 5 6 9 10 11: 61.3 a.u.
2'F-ANA at 3 4 5 7 8 14 15: 52.8 a.u.
2'F-ANA at 1 2 3 5 6 8 9 11: 79.5 a.u.
2'F-ANA at 2 3 4 6 7 8 9 11 12 14 15: 257 a.u.
2'F-ANA at 4 5 6 7 9 10 11 14: 43.1 a.u.
2'F-ANA at 1 2 3 4 7 13: 124 a.u.
